Published values pooled from the literature.
Each line is one published result; not all experiments were run side by side.
Target: Mitogen-activated protein kinase kinase kinase 9 (MAP3K9, Homo sapiens, UniProt P80192)

CNC(=O)C[C@H](Cc1ccc(C#N)cc1)NC(=O)c1cc(-c2ccc(CN[C@H](C)c3ccc(C)cc3)o2)ccc1Cl  activity vs control (enzyme activity, inhibitor; 1 µM): 103%
COc1c(OCCCN2CCOCC2)ccc2c1N=C(NC(=O)c1cnc(N)nc1)N1CCN=C21  remaining activity (kinase activity, inhibitor; 1 µM; baseline: untreated control): 82%
Cc1ccc(-c2c(/C=C(\C#N)C(=O)NC(C)C)n(CCCO)c3ncnc(N)c23)cc1  remaining binding (cell-free assay, competition with immobilised ligand; 1 µM): 100%
COc1cc(Nc2nccc(-c3cnn4nc(OC)ccc34)n2)cc(C(F)(F)F)c1  remaining binding (binding, competition with immobilised ligand; 1 µM): 100%
CCn1cc(C(=O)O)c(=O)c2c(N)c(F)c(NC3CCCCC3)cc21  inhibition (kinase activity; 0.1 µM, together with: ATP at Km): -4.5%
CNC1C[S+]2CC[S+]3CC[S+](C1)[Ru-4]321([N]=C=S)[n]2c3ccc(OC)cc3c3c4c(c5cc(F)c[n+]1c5c32)C(=O)NC4=O (stereo not shown)  remaining binding (KinomeScan; 0.1 µM; baseline: untreated): 99%
C=C1CCCCCCCCCC(CO)C1=O (stereo not shown)  remaining binding (cell-free assay, competition with immobilised ligand; 10 µM): 100%
C=CC(=O)Nc1cc(-c2nn(C3CCN(CCNC(=O)[C@H](C)CCC45CC6CC(CC(C6)C4)C5)CC3)c3ncnc(N)c23)ccc1Oc1ccccc1  inhibition (inhibitor, KiNativ profiling; biochemical; 2 µM): 22.9%
C=CC(=O)N1CCc2ccc(-n3c(=O)ccc4cnc5ccc(-c6cnn(C)c6)cc5c43)cc21  remaining binding (KINOMEscan; 1 µM; baseline: DMSO control): 100%
COc1ccc(NC(=O)Nc2ccc3c(c2)C(=O)N(C(C)CO)CC(C)C(CN(C)Cc2ccc4c(c2)OCO4)O3)cc1 (stereo not shown)  remaining binding (binding, competition with immobilised ligand; 10 µM): 91%
C=CC(=O)N1CCCC(n2c(=O)c3ncccc3n(Cc3ccc(Oc4ccccc4)cc3)c2=O)C1 (stereo not shown)  remaining binding (cell-free assay, competition with immobilised ligand; 1 µM): 83%
NC(=O)[C@@H](O)C[C@H]1CCc2sc3ncnc(O[C@H]4CC[C@H](N5CCOCC5)CC4)c3c21  inhibition (enzyme activity, inhibitor; 10 µM): 13%
C=CC(=O)N1Cc2nc(-c3cc(-c4cc(Cl)cnc4Cl)c(F)cc3F)n(-c3ccncn3)c2C1  inhibition (cell-free assay, inhibitor; 1 µM): 11.4%
CN1CCN(Cc2ccc(NC(=O)c3cccc(C#Cc4cnc(N)c5ncccc45)c3)cc2C(F)(F)F)CC1  remaining binding (cell-free assay, competition with immobilised ligand; 0.5 µM): 40%
CC(C)=CC1OC(C)(C)C2C=C3C(=O)C(Cl)=CC(O)C3C3C(O)C4OC4C(=O)C132 (stereo not shown)  remaining binding (cell-free assay, competition with immobilised ligand; 10 µM): 93%
CC(=O)N1c2ccc(-c3ccc(CNC(=O)c4cn5cc(-c6cnc(N)nc6)nc(N6CCOCC6)c5n4)cc3)cc2CC[C@@H]1C  remaining binding (KINOMEscan; 10 µM): 32%

Some of these lines once more:
C=CC(=O)N1Cc2nc(-c3cc(-c4cc(Cl)cnc4Cl)c(F)cc3F)n(-c3ccncn3)c2C1  inhibition (cell-free assay, inhibitor; 1 µM): 11.4%
CN1CCN(Cc2ccc(NC(=O)c3cccc(C#Cc4cnc(N)c5ncccc45)c3)cc2C(F)(F)F)CC1  remaining binding (cell-free assay, competition with immobilised ligand; 0.5 µM): 40%
CC(C)=CC1OC(C)(C)C2C=C3C(=O)C(Cl)=CC(O)C3C3C(O)C4OC4C(=O)C132 (stereo not shown)  remaining binding (cell-free assay, competition with immobilised ligand; 10 µM): 93%
